{"data": "Measured values collected from several papers", "note": "Every numbered part comes from another study and shows a few of its results, in no order. “And” joins repeats or separate records; there may be more than shown.", "UniProt P48736, sequence (whole entry, looked up)": "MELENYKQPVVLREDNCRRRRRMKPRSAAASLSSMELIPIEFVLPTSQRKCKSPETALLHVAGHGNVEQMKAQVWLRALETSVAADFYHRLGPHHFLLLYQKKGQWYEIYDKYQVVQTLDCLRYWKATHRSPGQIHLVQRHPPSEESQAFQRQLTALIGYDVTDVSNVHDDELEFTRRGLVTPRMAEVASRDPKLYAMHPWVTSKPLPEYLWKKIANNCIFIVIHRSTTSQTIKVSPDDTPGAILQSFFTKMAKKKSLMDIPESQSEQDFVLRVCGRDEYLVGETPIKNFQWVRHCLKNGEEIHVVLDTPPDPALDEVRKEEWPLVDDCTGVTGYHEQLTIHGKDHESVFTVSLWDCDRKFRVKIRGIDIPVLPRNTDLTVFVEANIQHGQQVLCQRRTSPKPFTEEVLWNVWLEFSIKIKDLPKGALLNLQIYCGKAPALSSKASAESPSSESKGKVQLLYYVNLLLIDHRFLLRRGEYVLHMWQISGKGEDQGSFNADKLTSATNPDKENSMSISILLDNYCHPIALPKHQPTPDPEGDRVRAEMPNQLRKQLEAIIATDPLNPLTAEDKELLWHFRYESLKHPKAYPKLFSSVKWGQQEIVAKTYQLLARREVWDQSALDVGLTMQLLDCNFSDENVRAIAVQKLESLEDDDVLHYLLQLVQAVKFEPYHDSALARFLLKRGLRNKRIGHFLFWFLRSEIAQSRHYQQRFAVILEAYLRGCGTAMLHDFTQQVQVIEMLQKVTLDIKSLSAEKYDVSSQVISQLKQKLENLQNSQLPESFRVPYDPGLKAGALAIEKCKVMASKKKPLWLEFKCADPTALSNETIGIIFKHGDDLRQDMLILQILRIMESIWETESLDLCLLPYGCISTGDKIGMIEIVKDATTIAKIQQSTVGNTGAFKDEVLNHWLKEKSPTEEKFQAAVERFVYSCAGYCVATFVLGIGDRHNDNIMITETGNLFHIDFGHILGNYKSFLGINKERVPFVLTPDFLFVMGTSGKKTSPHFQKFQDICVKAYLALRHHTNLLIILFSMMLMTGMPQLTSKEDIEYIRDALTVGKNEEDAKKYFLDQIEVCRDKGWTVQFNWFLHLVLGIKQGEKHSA", "UniProt Q13163, sequence (whole entry, looked up)": "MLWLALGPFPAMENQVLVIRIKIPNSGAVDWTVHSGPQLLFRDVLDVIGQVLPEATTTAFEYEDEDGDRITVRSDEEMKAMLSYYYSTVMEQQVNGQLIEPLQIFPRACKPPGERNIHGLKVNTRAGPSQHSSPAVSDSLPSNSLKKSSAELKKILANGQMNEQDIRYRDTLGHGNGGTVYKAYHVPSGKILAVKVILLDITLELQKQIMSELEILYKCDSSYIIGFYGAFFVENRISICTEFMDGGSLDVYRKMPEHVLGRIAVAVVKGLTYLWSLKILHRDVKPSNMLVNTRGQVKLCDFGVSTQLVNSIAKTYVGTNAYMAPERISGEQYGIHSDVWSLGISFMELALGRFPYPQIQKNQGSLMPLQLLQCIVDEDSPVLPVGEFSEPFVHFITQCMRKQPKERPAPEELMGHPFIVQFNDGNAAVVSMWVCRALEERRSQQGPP", "UniProt Q8TD08, sequence (whole entry, looked up)": "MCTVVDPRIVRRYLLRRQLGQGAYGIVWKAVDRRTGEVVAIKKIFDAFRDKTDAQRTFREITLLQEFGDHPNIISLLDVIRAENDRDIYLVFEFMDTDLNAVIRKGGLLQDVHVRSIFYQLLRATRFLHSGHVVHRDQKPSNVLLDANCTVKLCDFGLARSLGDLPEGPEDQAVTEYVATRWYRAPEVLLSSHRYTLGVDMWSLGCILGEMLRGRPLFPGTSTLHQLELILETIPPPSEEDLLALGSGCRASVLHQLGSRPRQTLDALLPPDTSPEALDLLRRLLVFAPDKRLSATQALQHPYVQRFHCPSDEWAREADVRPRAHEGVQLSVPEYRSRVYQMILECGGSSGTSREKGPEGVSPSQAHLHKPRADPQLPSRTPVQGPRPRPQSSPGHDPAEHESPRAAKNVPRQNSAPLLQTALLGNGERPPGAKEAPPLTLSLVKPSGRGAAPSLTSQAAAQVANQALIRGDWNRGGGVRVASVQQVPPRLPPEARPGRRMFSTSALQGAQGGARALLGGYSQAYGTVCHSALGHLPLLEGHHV", "UniProt O43283, sequence (whole entry, looked up)": "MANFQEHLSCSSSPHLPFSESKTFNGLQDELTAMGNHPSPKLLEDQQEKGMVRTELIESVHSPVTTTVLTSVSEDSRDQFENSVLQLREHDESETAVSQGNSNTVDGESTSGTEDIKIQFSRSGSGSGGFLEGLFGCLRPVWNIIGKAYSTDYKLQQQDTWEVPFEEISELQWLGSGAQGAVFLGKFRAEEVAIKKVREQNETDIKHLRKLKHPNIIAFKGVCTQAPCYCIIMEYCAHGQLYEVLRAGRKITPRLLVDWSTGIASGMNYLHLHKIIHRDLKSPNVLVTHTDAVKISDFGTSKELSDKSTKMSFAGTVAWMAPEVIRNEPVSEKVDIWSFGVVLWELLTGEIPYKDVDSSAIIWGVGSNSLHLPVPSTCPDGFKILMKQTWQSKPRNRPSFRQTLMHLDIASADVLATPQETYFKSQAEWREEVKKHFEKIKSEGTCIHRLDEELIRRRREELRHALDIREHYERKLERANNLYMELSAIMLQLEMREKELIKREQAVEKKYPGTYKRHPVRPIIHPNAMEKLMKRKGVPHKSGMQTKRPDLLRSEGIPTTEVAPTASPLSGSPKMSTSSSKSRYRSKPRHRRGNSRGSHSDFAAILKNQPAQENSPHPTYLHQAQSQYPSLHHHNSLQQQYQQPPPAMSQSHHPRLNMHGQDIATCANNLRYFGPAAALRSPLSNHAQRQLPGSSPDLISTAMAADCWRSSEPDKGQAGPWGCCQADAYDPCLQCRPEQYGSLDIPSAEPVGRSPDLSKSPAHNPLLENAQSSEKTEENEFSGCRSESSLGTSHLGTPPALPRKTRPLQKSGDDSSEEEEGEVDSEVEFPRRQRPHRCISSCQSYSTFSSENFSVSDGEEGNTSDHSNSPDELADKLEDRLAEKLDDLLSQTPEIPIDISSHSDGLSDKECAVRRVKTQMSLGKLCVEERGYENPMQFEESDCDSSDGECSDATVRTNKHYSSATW"}
{"data": "Block 1", "Compound": "CCOc1ccc(Nc2c3c(nc4ccccc24)CCC3)cc1"}
{"cell line": "HEK293", "method": "resazurin", "concentration": "33.32 µM", "notes": "10% serum", "cytotoxicity": "85% and 81%"}
{"cell line": "RAW264.7", "method": "resazurin", "concentration": "0.066 µM", "cytotoxicity": "-3%"}
{"cell line": "RAW264.7", "method": "resazurin", "concentration": "0.0166 µM", "cytotoxicity": "-5% and -3%"}
{"cell line": "RAW264.7", "method": "resazurin", "concentration": "0.66 µM", "cytotoxicity": "-4% and 8%"}
{"cell line": "PMA-differentiated THP-1 macrophages", "concentration": "40 µM", "time": "64 h", "cytotoxicity": "84% and 91%"}
{"cell line": "HEK293", "method": "resazurin", "concentration": "6.66 µM", "notes": "10% serum", "cytotoxicity": "12% and 13%"}
{"cell line": "HEK293", "method": "resazurin", "concentration": "1.66 µM", "notes": "10% serum", "cytotoxicity": "7% and 11%"}
{"cell line": "HepG2", "method": "resazurin", "concentration": "3.32 µM", "time": "48 h", "cytotoxicity": "18% and 20%"}
{"cell line": "HepG2", "method": "resazurin", "concentration": "66.66 µM", "time": "48 h", "cytotoxicity": "100%"}
{"data": "Block 2", "target": "Serine/threonine-protein kinase haspin (HASPIN, Homo sapiens, UniProt Q8TF76)", "observed": "enzyme activity", "action": "inhibitor", "concentration": "0.5 µM", "relative to": "control", "UniProt Q8TF76, sequence (whole entry, looked up)": "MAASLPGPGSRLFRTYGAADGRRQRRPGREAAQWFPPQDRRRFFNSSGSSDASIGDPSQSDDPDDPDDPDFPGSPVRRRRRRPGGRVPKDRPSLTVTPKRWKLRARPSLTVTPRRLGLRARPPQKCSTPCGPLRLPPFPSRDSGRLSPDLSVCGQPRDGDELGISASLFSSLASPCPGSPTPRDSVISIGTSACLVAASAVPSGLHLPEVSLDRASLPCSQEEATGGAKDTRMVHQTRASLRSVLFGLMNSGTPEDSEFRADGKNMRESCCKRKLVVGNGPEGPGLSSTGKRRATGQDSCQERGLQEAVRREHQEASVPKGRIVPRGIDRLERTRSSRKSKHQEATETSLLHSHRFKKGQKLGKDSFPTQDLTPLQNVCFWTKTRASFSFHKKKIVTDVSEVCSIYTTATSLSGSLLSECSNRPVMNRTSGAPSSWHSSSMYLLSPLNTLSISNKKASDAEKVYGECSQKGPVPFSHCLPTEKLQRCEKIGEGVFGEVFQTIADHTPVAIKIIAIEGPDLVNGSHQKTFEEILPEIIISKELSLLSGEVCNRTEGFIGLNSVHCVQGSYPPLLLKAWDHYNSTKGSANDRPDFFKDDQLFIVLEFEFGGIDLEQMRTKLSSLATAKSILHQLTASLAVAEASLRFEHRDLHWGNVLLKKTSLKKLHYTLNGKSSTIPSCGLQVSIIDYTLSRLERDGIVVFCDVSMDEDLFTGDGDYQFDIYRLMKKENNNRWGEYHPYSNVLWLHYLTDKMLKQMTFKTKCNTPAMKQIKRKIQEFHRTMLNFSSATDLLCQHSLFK"}
{"SMILES": "O=C(c1ccccc1)c1ccc(N2CCOCC2)cc1O", "remaining activity [%]": 98.5}
{"SMILES": "CCN(CC)CCCCN1c2ccccc2Oc2ccc(Cl)cc21", "remaining activity [%]": 104}
{"SMILES": "NC(=O)c1ccc(-c2nc(-c3ccc4c(c3)OCCO4)c(-c3ccccn3)[nH]2)cc1", "remaining activity [%]": 86}
{"SMILES": "O=C1c2ccccc2-c2nc3nnnn3nc21", "remaining activity [%]": 79.2}
{"SMILES": "CC(C)n1cnc2c(Nc3cccc(Cl)c3)nc(NCCO)nc21", "remaining activity [%]": 94.7}
{"SMILES": "Clc1ccc(Nc2nnc(Cc3ccncc3)c3ccccc23)cc1", "remaining activity [%]": 70}
{"SMILES": "CC(C)(C)c1nc2c3cc[nH]c(=O)c3c3cc(F)ccc3c2[nH]1", "remaining activity [%]": 67.2}
{"SMILES": "NC(=O)c1cccc(-c2cc(Nc3ccc(OC(F)(F)F)cc3)ncn2)c1", "remaining activity [%]": 105}
{"SMILES": "CNc1cc2c(Nc3cccc(Br)c3)ncnc2cn1", "remaining activity [%]": 91.8}
{"SMILES": "CC(C)N(CCC(=O)c1ccc2ccccc2c1)Cc1ccccc1", "remaining activity [%]": 95.6}
{"SMILES": "FC(F)(F)c1ccc(/C=C/c2nc(COc3ccc(CCCCn4ccnn4)cc3)co2)cc1", "remaining activity [%]": 105}
{"SMILES": "O=Nc1c(-c2c(O)[nH]c3ccccc23)[nH]c2ccccc12", "remaining activity [%]": 65.6}
{"SMILES": "c1cc(-c2cnn3cc(-c4ccc(OCCN5CCCCC5)cc4)cnc23)ccn1", "remaining activity [%]": 64}
{"SMILES": "O=c1c(-c2ccc(F)cc2)c(-c2ccncc2)[nH]n1-c1ccc(Cl)cc1", "remaining activity [%]": 96.5}
{"SMILES": "Nc1nc(Nc2ccc(S(N)(=O)=O)cc2)nn1C(=S)Nc1c(F)cccc1F", "remaining activity [%]": 85.3}
{"SMILES": "O=C1NC(=O)/C(=C/c2ccc3c(c2)OC(F)(F)O3)S1", "remaining activity [%]": 96.7}
{"SMILES": "O=C(O)/C=C/c1cc(Br)c(Br)c(Br)c1Br", "remaining activity [%]": 88.4}
{"SMILES": "COc1cc2c(N3CCN(C(=O)Nc4ccc(OC(C)C)cc4)CC3)ncnc2cc1OCCCN1CCCCC1", "remaining activity [%]": 99.5}
{"SMILES": "COc1cc2c(Nc3ccc(Br)cc3F)ncnc2cc1OCC1CCN(C)CC1", "remaining activity [%]": 92.6}
{"SMILES": "CCCCc1c(-c2ccc(O)cc2)[nH]c2nccnc12", "remaining activity [%]": 65.3}
{"SMILES": "N#C/C(=C(/N)SC1C=CC=CC1)c1cccc(C(O)c2ccncc2)c1 (stereo not drawn)", "remaining activity [%]": 94.7}
{"SMILES": "C[C@@H](N)[C@H]1CC[C@H](C(=O)Nc2ccncc2)CC1", "remaining activity [%]": 92.4}
{"SMILES": "N#CC(c1ccnc(NCCc2cccnc2)n1)c1nc2ccccc2s1 (stereo not drawn)", "remaining activity [%]": 31}
{"data": "Block 3", "SMILES": "CO[C@H]1CC[C@H](CNc2ccc(S(=O)(=O)NC(=O)c3ccc(N4CCN(CC5=C(c6ccc(Cl)cc6)CC(C)(C)CC5)CC4)cc3Oc3cnc4[nH]ccc4c3)cc2[N+](=O)[O-])CC1", "observed": "cell-free assay", "method": "competition with immobilised ligand", "concentration": "1 µM"}
{"target": "RIOK2 (Homo sapiens, UniProt Q9BVS4)", "remaining binding [%]": 89}
{"target": "TSSK1B (Homo sapiens, UniProt Q9BXA7)", "remaining binding [%]": 67}
{"target": "MAPK15 (Homo sapiens, UniProt Q8TD08)", "remaining binding [%]": 85}
{"target": "PAK4 (Homo sapiens, UniProt O96013)", "remaining binding [%]": 78}
{"target": "PIK3CG (Homo sapiens, UniProt P48736)", "remaining binding [%]": 86}
{"target": "PIK3CA (Homo sapiens, UniProt P42336)", "remaining binding [%]": 77}
{"target": "Tyrosine-protein kinase JAK1, JH1 (JAK1, Homo sapiens, UniProt P23458)", "remaining binding [%]": 96}
{"target": "MAPK14 (Homo sapiens, UniProt Q16539)", "remaining binding [%]": 83}
{"target": "MAP3K13 (Homo sapiens, UniProt O43283)", "remaining binding [%]": 89}
{"target": "ACVR1 (Homo sapiens, UniProt Q04771)", "remaining binding [%]": 84}
{"target": "MAP2K5 (Homo sapiens, UniProt Q13163)", "remaining binding [%]": 66}
{"target": "EGFR (Homo sapiens, UniProt P00533)", "remaining binding [%]": 62}
{"target": "EPHA6 (Homo sapiens, UniProt Q9UF33)", "remaining binding [%]": 99}
{"target": "MAPK7 (Homo sapiens, UniProt Q13164)", "remaining binding [%]": 88}
{"target": "BTK (Homo sapiens, UniProt Q06187)", "remaining binding [%]": 100}
{"data": "Other studies, line by line"}
{"SMILES": "CC(C)n1cnc(-c2ccc(F)cc2)c1-c1ncc(C(=O)Nc2ccc(N3CCN(C)CC3)cc2)[nH]1", "host": "IPF patients", "dose": "30 mg once daily", "notes": "adverse event incidence", "endpoint": "blood creatinine increased", "result": "0%"}
